{"data": "Assay results collected from several papers", "ESR1": "Estrogen receptor (ESR1, Homo sapiens, UniProt P03372)", "PIM1": "Serine/threonine-protein kinase pim-1 (PIM1, Homo sapiens, UniProt P11309)", "Kelch domain-containing protein 2": "Kelch domain-containing protein 2 (UniProt Q9Y2U9)", "OPRK1": "Kappa-type opioid receptor (OPRK1, Homo sapiens, UniProt P41145)", "note": "Protocols differ between the studies behind these lines. “And” joins repeats or separate records; there may be more than shown. ± gives the spread as reported. The star is where a group is joined.", "sequence of UniProt P03372 (whole entry, looked up)": "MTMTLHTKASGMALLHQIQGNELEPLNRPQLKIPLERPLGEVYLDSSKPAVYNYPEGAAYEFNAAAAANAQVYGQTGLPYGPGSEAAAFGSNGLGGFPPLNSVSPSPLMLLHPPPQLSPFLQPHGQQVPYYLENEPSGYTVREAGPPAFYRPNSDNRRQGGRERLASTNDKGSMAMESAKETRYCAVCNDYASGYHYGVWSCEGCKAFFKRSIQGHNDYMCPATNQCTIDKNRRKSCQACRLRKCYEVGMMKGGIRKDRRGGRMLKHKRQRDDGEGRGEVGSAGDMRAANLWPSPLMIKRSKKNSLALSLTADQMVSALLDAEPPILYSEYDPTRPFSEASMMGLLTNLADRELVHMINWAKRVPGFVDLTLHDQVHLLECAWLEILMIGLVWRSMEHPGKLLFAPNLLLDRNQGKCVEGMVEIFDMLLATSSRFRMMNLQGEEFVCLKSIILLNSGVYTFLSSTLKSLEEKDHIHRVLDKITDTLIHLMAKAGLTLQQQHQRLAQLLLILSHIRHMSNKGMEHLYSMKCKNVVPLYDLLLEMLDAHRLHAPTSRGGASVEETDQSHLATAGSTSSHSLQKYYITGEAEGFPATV", "sequence of UniProt Q9Y2U9 (whole entry, looked up)": "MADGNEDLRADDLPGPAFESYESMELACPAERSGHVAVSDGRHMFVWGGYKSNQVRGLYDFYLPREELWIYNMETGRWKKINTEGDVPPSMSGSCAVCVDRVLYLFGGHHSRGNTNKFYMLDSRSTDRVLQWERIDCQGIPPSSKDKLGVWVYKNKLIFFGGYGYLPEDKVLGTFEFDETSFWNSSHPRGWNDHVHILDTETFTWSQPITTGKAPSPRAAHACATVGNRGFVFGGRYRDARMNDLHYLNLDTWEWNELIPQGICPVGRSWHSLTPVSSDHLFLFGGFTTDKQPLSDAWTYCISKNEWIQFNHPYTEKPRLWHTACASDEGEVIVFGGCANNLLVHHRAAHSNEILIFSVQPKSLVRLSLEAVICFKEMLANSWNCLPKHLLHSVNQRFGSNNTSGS", "sequence of UniProt P41145 (whole entry, looked up)": "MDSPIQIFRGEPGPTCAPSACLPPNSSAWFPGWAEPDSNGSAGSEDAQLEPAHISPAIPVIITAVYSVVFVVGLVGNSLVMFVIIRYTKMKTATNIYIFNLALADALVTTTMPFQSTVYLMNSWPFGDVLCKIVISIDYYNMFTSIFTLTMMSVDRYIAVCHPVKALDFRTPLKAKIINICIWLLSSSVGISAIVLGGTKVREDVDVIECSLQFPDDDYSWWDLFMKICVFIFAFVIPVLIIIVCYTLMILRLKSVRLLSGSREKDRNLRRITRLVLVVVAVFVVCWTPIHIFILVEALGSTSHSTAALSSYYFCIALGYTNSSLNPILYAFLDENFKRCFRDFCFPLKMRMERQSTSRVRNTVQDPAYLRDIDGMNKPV", "sequence of UniProt P0AFG3 (whole entry, looked up)": "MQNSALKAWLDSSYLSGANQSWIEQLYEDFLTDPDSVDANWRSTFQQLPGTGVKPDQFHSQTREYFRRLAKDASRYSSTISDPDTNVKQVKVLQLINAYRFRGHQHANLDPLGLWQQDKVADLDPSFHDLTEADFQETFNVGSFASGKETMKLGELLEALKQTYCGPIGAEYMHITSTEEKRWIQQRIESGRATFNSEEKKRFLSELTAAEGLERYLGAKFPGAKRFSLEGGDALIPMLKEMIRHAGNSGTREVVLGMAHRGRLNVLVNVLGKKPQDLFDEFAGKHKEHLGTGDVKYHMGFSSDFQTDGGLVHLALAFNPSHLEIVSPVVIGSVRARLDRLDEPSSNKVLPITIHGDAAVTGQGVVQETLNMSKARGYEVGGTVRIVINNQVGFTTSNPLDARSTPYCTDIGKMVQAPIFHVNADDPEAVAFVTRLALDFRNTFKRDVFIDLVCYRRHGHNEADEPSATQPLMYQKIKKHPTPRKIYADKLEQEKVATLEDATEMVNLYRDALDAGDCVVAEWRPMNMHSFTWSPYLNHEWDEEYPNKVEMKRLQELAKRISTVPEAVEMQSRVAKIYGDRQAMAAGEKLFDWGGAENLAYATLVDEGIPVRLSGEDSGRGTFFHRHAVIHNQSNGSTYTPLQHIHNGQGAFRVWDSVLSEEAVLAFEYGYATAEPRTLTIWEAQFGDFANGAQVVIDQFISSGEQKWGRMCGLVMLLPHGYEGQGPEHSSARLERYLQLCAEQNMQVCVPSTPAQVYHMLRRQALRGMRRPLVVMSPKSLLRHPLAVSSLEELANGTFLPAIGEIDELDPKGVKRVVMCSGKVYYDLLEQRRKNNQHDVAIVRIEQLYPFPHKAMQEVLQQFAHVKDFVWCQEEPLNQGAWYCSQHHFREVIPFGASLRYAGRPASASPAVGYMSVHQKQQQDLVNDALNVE", "sequence of UniProt P11309 (whole entry, looked up)": "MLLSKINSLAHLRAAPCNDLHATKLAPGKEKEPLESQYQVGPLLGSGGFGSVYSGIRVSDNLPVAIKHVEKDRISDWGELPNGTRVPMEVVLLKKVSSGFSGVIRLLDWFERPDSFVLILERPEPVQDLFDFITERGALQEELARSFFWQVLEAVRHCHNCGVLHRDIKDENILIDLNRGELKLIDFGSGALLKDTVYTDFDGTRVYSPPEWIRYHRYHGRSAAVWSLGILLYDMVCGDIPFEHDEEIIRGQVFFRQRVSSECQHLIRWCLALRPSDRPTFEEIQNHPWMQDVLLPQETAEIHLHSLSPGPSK", "sequence of UniProt P08913 (whole entry, looked up)": "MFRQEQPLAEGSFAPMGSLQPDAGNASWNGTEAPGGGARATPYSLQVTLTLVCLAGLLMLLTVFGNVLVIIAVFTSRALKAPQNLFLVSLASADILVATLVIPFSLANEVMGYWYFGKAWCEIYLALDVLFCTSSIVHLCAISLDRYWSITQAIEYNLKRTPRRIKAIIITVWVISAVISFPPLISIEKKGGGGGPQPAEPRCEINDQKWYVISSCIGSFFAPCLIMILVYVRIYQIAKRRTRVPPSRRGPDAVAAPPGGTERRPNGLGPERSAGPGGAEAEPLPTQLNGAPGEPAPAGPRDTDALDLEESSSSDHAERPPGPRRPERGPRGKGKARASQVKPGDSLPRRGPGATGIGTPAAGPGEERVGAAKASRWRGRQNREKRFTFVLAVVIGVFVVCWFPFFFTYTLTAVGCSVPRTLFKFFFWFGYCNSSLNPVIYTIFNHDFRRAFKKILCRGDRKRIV", "sequence of UniProt Q12778 (whole entry, looked up)": "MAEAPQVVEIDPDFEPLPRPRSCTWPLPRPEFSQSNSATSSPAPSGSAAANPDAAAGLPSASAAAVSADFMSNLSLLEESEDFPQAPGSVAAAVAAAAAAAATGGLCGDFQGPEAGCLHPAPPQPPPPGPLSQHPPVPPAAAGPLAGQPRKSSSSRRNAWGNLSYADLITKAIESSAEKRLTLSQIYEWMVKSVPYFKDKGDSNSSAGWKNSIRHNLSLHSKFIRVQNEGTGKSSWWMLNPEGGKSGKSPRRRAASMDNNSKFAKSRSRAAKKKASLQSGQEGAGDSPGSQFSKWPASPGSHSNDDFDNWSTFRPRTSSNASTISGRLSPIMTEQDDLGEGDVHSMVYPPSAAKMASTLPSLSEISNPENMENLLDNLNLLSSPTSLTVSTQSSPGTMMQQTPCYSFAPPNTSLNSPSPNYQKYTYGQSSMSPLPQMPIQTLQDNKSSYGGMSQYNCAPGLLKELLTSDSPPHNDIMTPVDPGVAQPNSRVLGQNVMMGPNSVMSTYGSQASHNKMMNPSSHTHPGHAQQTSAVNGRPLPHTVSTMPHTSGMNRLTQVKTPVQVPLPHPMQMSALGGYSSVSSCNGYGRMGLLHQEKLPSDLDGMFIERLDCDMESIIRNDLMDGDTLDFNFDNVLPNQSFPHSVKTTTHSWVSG", "sequence of UniProt P34972 (whole entry, looked up)": "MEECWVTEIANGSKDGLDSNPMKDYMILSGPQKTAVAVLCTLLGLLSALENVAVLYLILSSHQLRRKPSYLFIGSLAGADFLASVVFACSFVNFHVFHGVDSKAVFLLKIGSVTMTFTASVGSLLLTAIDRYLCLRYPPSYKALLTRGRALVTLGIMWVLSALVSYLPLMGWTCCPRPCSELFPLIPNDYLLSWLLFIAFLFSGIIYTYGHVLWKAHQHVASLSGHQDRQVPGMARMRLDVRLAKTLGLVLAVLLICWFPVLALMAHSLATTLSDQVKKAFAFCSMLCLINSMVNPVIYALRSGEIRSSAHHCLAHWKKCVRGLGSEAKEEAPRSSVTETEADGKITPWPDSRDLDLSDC", "sequence of UniProt P00163 (whole entry, looked up)": "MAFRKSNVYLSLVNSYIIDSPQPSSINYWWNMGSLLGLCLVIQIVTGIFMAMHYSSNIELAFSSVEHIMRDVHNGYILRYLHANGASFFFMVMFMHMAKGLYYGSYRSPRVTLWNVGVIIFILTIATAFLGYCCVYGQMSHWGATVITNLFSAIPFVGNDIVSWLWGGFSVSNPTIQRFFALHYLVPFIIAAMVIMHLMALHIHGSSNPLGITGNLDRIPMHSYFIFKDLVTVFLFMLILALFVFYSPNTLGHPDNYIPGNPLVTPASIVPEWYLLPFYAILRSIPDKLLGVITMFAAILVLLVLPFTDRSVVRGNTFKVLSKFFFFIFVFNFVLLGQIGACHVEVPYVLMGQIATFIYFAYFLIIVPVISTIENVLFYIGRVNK", "sequence of UniProt P0ABB4 (whole entry, looked up)": "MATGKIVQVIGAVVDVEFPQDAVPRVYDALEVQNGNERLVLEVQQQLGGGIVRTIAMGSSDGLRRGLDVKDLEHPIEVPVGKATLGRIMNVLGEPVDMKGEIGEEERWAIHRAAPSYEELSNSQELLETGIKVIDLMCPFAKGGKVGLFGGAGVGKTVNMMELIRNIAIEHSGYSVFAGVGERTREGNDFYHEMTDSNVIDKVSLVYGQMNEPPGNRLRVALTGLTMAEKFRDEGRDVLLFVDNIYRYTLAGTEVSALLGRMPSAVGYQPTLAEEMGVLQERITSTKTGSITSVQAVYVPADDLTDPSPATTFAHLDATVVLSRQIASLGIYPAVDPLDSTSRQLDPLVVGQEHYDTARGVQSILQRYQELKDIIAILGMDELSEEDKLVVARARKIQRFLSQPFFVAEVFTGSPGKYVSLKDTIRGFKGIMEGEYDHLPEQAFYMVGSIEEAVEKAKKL"}
{"Molecule": "COC(=O)[C@H]1[C@@H](c2ccc(Cl)c(Cl)c2)C[C@@H]2CC[C@H]1N2CCOCCOCCOCCOCCOCCNC(=O)c1ccc2c(c1)C1(OC2=O)c2ccc(N3CCC3)cc2[Si](C)(C)c2cc(N3CCC3)ccc21", "target": "Sodium-dependent dopamine transporter (SLC6A3, Homo sapiens, UniProt Q01959)", "test": "dSTORM, DBSCAN clustering", "test system": "CAD expressing SLC6A3", "conditions": "10 nM", "measurement": "fraction in nanodomains", "result": 0.31}
{"Molecule": "CC(CCCCCC(F)(F)F)CC1=C(O)C(=O)c2ccccc2C1=O (centres unmarked)", "target": "COB/RIP1, center P (Saccharomyces cerevisiae, UniProt P00163+P08067)", "test": "center P first turnover", "conditions": "concentration not given, preincubated with oxidized enzyme, together with: quinol", "measurement": "cytochrome b reduction", "result": "no inhibition"}
{"Molecule": "CC[C@H]1O[C@]2(C)[C@H](OC(C)=O)[C@@]1(C)O[C@@H](/C=C/C=C/C=C/c1oc(=O)cc(OC)c1C)[C@@H]2O", "target": "atpD, in F1Fo complex (Escherichia coli, UniProt P0ABB4)", "test": "ATP hydrolysis, single-molecule FRET", "test system": "liposome-reconstituted F1Fo-ATPase", "measurement": "dwell time decay constant", "result": "28 ± 3 ms"}
{"Molecule": "QSYNWFDHTRWI", "target": "HIV-1 neutralising antibody 4E10", "test": "phage binding, M13 phage ELISA", "test system": "peptide", "conditions": "concentration not given", "how to read": "lower = stronger binding", "measurement": "binding titer", "result": "1.7e+08 M13/mL"}
{"Molecule": "Oc1ccc(-c2c[se]cc2-c2ccc(O)cc2F)c(F)c1", "target": "ESR1", "test": "antagonist", "test system": "HEK293T", "conditions": "highest tested concentration, together with: estradiol 10 nM", "how to read": "reference: estradiol alone", "measurement": "efficacy", "result": "67 ± 3%"}
{"Molecule": "AYRHPTGMYY", "target": "PIM1", "test": "substrate, coupled enzyme", "test system": "peptide", "conditions": "pH 7.4, room temperature, together with: 1 mM ATP, 20 mM MgCl2", "measurement": "kcat/Km", "result": "960 M⁻¹ s⁻¹"}
{"Molecule": "C[C@@H](NC(=O)[C@@H](N)Cc1ccc(O)cc1)C(=O)NCC(=O)N(C)[C@@H](Cc1ccccc1)C(=O)NCCO", "target": "Oprd1/Oprm1 (Rattus norvegicus, UniProt P33533+P33535)", "test": "delta-mu receptor heterodimer", "conditions": "1 µM, together with: mu agonist 0.5 µM", "measurement": "heterodimer lifetime", "result": "369 ± 11 ms"}
{"Molecule": "O=[N+]([O-])c1ccc(OP(=O)(O)Oc2ccc([N+](=O)[O-])cc2)cc1", "target": "Liver carboxylesterase 1 (CES1, Homo sapiens, UniProt P23141)", "test": "irreversible inhibitor", "conditions": "5× IC50 or 200 µM, 1 h, preincubation then inhibitor removal, together with: o-nitrophenyl acetate substrate", "measurement": "remaining activity", "result": "99.9%"}
{"Molecule": "Oc1ccc(-c2ccc(-c3ccc(O)cc3Cl)[se]2)c(Cl)c1", "target": "ESR1", "test": "antagonist", "test system": "HEK293T", "conditions": "highest tested concentration, together with: estradiol 10 nM", "how to read": "reference: estradiol alone", "measurement": "efficacy", "result": "73 ± 8%"}
{"Molecule": "CCCCCCCCCCCCCC(=O)O[C@@H]1[C@@H](C)[C@@]2(O)[C@@H](C=C(CO)C[C@]3(O)C(=O)C(C)=C[C@@H]23)[C@@H]2C(C)(C)[C@]12OC(C)=O", "target": "Yes kinase, rat", "test": "measured: Yes pY416", "conditions": "1 µM, 5 min", "how to read": "reference: untreated control", "measurement": "phosphorylation level", "result": "202 ± 34%"}
{"Molecule": "SQLIDKIAAGA", "target": "Kelch domain-containing protein 2", "test": "native mass spectrometry", "test system": "peptide, 200 mM ammonium acetate", "conditions": "20 µM Kelch domain-containing protein 2, pH 7", "how to read": "reference: total Kelch domain-containing protein 2 signal", "measurement": "fraction of protein bound", "result": "0.1%"}
{"Molecule": "CCOc1ccccc1NC(=O)c1ccccc1NS(=O)(=O)C1CC1", "target": "Mas-related G-protein coupled receptor member X2 (MRGPRX2, Homo sapiens, UniProt Q96LB1)", "test": "receptor activation, antagonist", "test system": "HEK293 expressing MRGPRX2", "conditions": "concentration not given, together with: PAMP", "measurement": "activity", "result": "inactive"}
{"Molecule": "CC12CC3CC1(C)C1(C)CC3(CN)CC21C.Cl", "target": "Glutamate NMDA receptor; Grin1/Grin2a (Grin1/Grin2a, Rattus norvegicus, UniProt P35439+Q00959)", "test": "NMDA current unblock, whole-cell patch clamp", "test system": "tsA201 cells", "conditions": "10 µM, holding potential -60 mV, together with: 100 µM NMDA plus 10 µM glycine", "measurement": "current recovery after washout", "result": "90.6 ± 3.5%"}
{"Molecule": "CC1N=C(c2ccccc2F)c2cc(Nc3ccccc3C#N)ccc2NC1=O (centres unmarked)", "target": "Alpha-2A adrenergic receptor (ADRA2A, Homo sapiens, UniProt P08913)", "test": "ligand displacement, radioligand", "conditions": "10 µM", "measurement": "inhibition", "result": "38%"}
{"Molecule": "Ac-LDEVD-pNA (N-acetyl, C-pNA; pNA = O=[N+]([O-])c1ccc(N*)cc1)", "target": "Caspase-7 (CASP7, Homo sapiens, UniProt P55210)", "test": "substrate hydrolysis, substrate, colorimetric", "conditions": "pH 7.5", "measurement": "kcat/Km", "result": "16700 ± 1670 M⁻¹ s⁻¹"}
{"Molecule": "C[C@H](CCC(=O)NCC(=O)O)[C@H]1CC[C@H]2[C@@H]3[C@H](O)C[C@@H]4C[C@@H](O)CC[C@]4(C)[C@H]3CC[C@]12C", "target": "Ileal sodium/bile acid cotransporter (SLC10A2, Homo sapiens, UniProt Q12908)", "test": "substrate", "test system": "MDCK transfected with SLC10A2", "conditions": "10 min, 37 °C", "measurement": "Kt", "result": "59.5 µM"}
{"Molecule": "CC1=C(/C=C/C(C)=C/C=C/C(C)=C/C(=O)O)C(C)(C)CCC1", "target": "Retinoic acid receptor alpha (RARA, Homo sapiens, UniProt P10276)", "test": "reporter gene, agonist, luciferase", "test system": "HEK-293T", "conditions": "1 nM", "measurement": "induction", "result": 1.73}
{"Molecule": "NC(=O)c1ccccc1CNC(=O)c1nn(Cc2ccc(F)cc2)c2ccccc12", "target": "Cannabinoid receptor 2 (CNR2, Homo sapiens, UniProt P34972)", "test": "calcium mobilization, agonist", "test system": "CHO-K1 expressing Gαq16", "how to read": "reference: CP55,940 maximum", "measurement": "Emax", "result": "79 ± 3%"}
{"Molecule": "CC(C)c1ccc(O)cc1", "target": "UDP-glucuronosyltransferase 1A9 (UGT1A9, Homo sapiens, UniProt O60656)", "test": "substrate", "conditions": "pH 7.4, 37 °C", "measurement": "Vmax", "result": "2180 pmol/mg/min"}
{"Molecule": "RYRDPTGMYY", "target": "PIM1", "test": "substrate, coupled enzyme", "test system": "peptide", "conditions": "pH 7.4, room temperature, together with: 1 mM ATP, 20 mM MgCl2", "measurement": "kcat", "result": "1.8 ± 0.1 s⁻¹"}
{"Molecule": "COc1ccc(Oc2ccc(C(=O)N[C@H](CN3CCN(c4cccc(O)c4)[C@@H](C)C3)C(C)C)cc2)cc1", "target": "OPRK1", "test": "antagonist", "test system": "CHO", "conditions": "together with: U69593", "measurement": "Ke", "result": "0.6 ± 0.18 nM"}
{"Molecule": "Oc1cc(-c2cc(Br)c(-c3ccc(F)c(O)c3)[se]2)ccc1F", "target": "Estrogen receptor beta (ESR2, Homo sapiens, UniProt Q92731)", "test": "antagonist", "test system": "HEK293T", "conditions": "highest tested concentration, 24 h, together with: estradiol 10 nM", "how to read": "reference: estradiol alone", "measurement": "efficacy", "result": "69 ± 16%"}
{"Molecule": "CC(C)C[C@H](NC(=O)CNC(=O)[C@H](CC(C)C)NC(=O)[C@@H]1CCCN1C(=O)CNC(=O)[C@H](Cc1ccccc1)NC(=O)[C@H](Cc1ccccc1)NC(=O)Cc1ccc2ccccc2c1)C(=O)N[C@@H](CCCNC(=N)N)C(=O)N[C@@H](CO)C(=O)N[C@@H](CCCCN)C(=O)O", "target": "Matrix metalloproteinase-9 (MMP9, Homo sapiens, UniProt P14780)", "test": "substrate, HPLC", "conditions": "500 µM, 72 h, pH 7.5, 37 °C", "measurement": "hydrolysis product", "result": "60%"}
{"Molecule": "COc1ncc(C[n+]2csc(CCOP(=O)(O)OP(=O)(O)O)c2C)c(N)n1", "target": "sucA (Escherichia coli, UniProt P0AFG3)", "test": "NADH formation", "conditions": "0.20 mM", "measurement": "enzyme activity", "result": "18.1 µmol/min/mg E1o and 13.2 µmol/min/mg E1o"}
{"Molecule": "WSHPQFEKGGGSGGG", "target": "Kelch domain-containing protein 2", "test": "native mass spectrometry", "test system": "peptide, 200 mM ammonium acetate", "conditions": "20 µM Kelch domain-containing protein 2, pH 7", "how to read": "reference: total Kelch domain-containing protein 2 signal", "measurement": "fraction of protein bound", "result": "0.3%"}
{"Molecule": "O=c1[nH]c(/C=C/c2ccc[nH]2)c([N+](=O)[O-])c(=O)[nH]1", "target": "Riboflavin synthase (ribC, Escherichia coli, UniProt P0AFU8)", "test": "enzyme activity, substrate", "test system": "Escherichia coli, recombinant riboflavin synthase", "conditions": "pH 7.0", "measurement": "Ks", "result": "2.9 ± 0.2 µM"}
{"Molecule": "O[C@@H](CN1CC[C@H](CCOC(c2ccccc2)c2ccccc2)[C@@H](O)C1)c1ccc(F)cc1", "target": "Transporter (Slc6a2, Rattus norvegicus, UniProt Q63380)", "test": "noradrenaline uptake, inhibitor", "test system": "rat hippocampus", "conditions": "together with: [3H]noradrenaline", "measurement": "Ki", "result": "24.8 nM"}
{"Molecule": "Cc1cc(C(=O)N[C@H](CN2CCN(c3cccc(O)c3)[C@@H](C)C2)C(C)C)ccc1Oc1ccccc1", "target": "OPRK1", "test": "antagonist", "test system": "CHO", "conditions": "together with: U69593", "measurement": "Ke", "result": "0.63 ± 0.19 nM"}
{"Molecule": "CCOC(=O)CN(CCN(CCN(CC(=O)O)CC(=O)OCC)CC(=O)O)CC(=O)O", "target": "americium(III)", "test": "americium-241 binding, solvent extraction", "conditions": "pH 1.3", "how to read": "reference: compound over DTPA, higher = weaker binding", "measurement": "ligand concentration ratio", "result": "~20 fold"}
{"Molecule": "O=P(O)(O)OC[C@@H](O)[C@@H](O)CO", "target": "Orotidine 5'-phosphate decarboxylase (Saccharomyces cerevisiae S288c, UniProt P03962, D37G)", "test": "decarboxylation of FO, activator", "conditions": "concentration not given, D37G variant", "how to read": "reference: wild type", "measurement": "increase in ΔG activation", "result": "2.5 kcal/mol"}
{"Molecule": "c1ccc([C@H]2CO2)cc1", "target": "Epoxide hydrolase 1 (Solanum tuberosum, UniProt Q41415)", "test": "substrate, tryptophan fluorescence", "conditions": "(S)-enantiomer", "measurement": "apparent Kd", "result": "410 ± 90 µM"}
{"Molecule": "KVALGAAGG", "target": "Kelch domain-containing protein 2", "test": "native mass spectrometry", "test system": "peptide, 200 mM ammonium acetate", "conditions": "20 µM Kelch domain-containing protein 2, pH 7", "how to read": "reference: total Kelch domain-containing protein 2 signal", "measurement": "fraction of protein bound", "result": "1.7%"}
{"Molecule": "CN1CCN(c2ccc(C(=O)Nc3cc(-c4nc5ccccc5[nH]4)n[nH]3)cc2)CC1", "target": "Forkhead box protein O1 (FOXO1, Homo sapiens, UniProt Q12778)", "test": "reporter gene", "test system": "HEK293", "how to read": "reference: FOXO3, FOXO4, FOXA2 over FOXO1", "measurement": "selectivity ratio", "result": "> 200 fold"}
{"Molecule": "Cc1cc(-c2cc(-c3ccc(O)c(C)c3)c(-c3ccc(O)c(C)c3)[se]2)ccc1O", "target": "ESR1", "test": "antagonist", "test system": "HEK293T", "conditions": "highest tested concentration, together with: estradiol 10 nM", "how to read": "reference: estradiol alone", "measurement": "efficacy", "result": "104 ± 29%"}
{"Molecule": "Oc1c(Cl)cc(-c2ccc(Cl)c(Cl)c2)cc1Cl", "target": "Aequorin-1 (Aequorea victoria, UniProt P07164, C152S/C159S/C187S)", "test": "aequorin bioluminescence, inhibitor", "conditions": "2 h, together with: coelenterazine", "measurement": "detection limit", "result": "19 µM"}
